Assay results of several laboratories.
Parts stem from different laboratories: compare values within a part only.
Sequence of UniProt Q02779 (whole entry, looked up): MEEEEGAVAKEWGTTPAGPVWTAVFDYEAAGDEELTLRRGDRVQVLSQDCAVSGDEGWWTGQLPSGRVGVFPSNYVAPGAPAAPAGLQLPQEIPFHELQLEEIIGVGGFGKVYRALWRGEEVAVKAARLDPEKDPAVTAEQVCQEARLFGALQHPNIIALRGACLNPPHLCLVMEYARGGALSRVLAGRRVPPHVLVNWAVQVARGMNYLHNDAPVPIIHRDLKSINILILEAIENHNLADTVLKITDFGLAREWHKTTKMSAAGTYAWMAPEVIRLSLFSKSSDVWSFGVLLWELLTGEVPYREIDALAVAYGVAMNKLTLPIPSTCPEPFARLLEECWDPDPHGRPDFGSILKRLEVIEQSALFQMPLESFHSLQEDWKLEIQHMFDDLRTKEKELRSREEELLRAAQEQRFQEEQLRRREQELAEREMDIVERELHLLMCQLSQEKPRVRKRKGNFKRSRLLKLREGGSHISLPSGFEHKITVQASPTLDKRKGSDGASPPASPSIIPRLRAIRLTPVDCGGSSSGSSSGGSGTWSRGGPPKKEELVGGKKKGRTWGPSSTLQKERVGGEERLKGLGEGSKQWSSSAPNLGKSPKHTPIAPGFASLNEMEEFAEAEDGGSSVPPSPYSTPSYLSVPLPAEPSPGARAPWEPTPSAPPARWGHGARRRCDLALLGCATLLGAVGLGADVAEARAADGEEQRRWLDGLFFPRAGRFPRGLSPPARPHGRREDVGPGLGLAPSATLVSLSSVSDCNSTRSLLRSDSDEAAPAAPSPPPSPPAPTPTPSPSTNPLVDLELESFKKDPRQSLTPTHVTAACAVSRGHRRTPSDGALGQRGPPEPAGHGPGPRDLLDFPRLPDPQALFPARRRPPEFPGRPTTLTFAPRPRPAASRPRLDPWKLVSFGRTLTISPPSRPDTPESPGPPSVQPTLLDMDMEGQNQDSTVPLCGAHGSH
Sequence of UniProt Q9Y243 (whole entry, looked up): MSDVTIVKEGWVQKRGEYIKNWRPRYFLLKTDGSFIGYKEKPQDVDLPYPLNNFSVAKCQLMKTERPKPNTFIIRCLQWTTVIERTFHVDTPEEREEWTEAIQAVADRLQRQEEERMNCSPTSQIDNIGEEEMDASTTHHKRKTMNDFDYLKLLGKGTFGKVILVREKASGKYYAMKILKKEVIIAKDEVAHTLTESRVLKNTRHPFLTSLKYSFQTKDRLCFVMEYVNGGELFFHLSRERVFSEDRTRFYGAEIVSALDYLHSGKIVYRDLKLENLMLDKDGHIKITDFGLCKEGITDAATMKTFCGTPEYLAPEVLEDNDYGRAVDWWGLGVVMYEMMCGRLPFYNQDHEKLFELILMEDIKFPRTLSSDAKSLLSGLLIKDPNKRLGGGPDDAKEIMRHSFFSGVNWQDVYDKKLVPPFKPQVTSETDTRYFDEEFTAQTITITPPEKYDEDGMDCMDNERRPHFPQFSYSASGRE
Sequence of UniProt P51957 (whole entry, looked up): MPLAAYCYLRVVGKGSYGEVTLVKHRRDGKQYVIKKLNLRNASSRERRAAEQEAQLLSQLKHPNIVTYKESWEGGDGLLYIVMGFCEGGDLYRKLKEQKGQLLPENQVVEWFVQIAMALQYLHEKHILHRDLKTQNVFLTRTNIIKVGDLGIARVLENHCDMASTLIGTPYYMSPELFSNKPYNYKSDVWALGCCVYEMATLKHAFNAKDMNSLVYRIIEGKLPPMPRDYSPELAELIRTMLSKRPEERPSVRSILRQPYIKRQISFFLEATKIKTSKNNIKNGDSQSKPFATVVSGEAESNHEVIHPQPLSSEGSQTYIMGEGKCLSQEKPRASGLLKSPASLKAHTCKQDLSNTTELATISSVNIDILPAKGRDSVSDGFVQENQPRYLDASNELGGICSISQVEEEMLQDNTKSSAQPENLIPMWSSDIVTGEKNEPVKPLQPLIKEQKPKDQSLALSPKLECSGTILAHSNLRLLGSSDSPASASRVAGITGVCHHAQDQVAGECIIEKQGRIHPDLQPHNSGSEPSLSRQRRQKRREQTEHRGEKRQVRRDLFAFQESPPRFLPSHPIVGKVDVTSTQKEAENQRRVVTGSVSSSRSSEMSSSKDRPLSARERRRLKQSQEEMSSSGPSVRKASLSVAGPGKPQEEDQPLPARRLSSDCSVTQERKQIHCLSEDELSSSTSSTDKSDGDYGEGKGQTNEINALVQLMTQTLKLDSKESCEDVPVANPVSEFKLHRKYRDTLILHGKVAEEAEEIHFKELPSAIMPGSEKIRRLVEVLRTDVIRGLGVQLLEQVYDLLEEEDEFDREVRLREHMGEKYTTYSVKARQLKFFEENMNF
Sequence of UniProt P48729 (whole entry, looked up): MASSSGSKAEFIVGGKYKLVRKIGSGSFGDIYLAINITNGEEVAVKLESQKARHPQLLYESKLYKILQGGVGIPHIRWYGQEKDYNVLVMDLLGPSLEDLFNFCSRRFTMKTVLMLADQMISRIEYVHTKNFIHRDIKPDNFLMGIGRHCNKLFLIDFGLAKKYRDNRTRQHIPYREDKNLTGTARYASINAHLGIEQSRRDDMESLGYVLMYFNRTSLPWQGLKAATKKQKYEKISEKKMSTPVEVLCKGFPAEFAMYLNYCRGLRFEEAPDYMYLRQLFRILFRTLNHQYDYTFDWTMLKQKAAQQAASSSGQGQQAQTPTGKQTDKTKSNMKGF
Sequence of UniProt Q13976 (whole entry, looked up): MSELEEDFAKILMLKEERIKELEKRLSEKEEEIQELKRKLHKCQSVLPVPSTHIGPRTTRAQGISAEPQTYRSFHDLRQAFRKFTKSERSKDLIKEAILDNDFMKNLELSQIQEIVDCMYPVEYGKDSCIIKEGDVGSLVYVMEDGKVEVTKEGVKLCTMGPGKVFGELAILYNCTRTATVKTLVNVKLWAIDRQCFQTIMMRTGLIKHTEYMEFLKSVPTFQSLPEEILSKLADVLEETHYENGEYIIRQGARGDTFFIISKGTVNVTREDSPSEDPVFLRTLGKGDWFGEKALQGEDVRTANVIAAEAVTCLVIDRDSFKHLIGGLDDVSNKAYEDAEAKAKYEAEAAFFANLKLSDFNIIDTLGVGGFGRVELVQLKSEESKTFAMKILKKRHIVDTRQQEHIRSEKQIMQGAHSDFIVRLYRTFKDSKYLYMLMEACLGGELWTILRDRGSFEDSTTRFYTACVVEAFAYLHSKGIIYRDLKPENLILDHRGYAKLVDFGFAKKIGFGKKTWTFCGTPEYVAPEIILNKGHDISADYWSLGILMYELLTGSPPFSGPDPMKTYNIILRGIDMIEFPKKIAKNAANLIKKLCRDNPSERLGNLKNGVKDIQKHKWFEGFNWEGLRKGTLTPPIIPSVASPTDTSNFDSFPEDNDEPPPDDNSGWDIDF
Sequence of UniProt P54756 (whole entry, looked up): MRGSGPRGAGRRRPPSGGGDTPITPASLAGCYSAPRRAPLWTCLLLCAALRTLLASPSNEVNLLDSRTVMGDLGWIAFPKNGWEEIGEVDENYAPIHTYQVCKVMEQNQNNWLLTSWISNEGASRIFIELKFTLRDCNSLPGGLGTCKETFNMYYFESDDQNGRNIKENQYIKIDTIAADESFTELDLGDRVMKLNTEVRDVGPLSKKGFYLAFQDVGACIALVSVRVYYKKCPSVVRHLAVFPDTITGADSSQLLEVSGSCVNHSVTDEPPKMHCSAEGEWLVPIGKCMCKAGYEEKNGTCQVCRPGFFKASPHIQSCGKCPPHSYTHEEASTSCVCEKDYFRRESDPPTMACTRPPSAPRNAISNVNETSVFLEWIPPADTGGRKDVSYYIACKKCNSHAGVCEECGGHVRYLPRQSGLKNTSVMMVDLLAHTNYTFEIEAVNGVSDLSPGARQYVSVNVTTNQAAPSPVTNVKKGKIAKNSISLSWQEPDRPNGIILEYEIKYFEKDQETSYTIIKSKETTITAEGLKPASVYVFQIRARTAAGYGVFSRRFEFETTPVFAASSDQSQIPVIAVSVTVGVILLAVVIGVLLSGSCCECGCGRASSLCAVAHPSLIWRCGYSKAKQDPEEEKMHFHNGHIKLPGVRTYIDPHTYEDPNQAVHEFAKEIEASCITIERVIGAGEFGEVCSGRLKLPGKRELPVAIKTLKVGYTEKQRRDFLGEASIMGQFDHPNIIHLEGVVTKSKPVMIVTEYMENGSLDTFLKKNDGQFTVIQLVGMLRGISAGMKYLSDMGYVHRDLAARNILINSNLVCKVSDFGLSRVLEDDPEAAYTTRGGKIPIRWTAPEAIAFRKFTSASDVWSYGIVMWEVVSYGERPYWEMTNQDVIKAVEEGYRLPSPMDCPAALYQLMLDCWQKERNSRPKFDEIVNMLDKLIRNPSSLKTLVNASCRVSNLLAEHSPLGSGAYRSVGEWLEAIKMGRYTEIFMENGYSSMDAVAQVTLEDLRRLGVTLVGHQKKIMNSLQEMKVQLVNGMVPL
Sequence of UniProt P50750 (whole entry, looked up): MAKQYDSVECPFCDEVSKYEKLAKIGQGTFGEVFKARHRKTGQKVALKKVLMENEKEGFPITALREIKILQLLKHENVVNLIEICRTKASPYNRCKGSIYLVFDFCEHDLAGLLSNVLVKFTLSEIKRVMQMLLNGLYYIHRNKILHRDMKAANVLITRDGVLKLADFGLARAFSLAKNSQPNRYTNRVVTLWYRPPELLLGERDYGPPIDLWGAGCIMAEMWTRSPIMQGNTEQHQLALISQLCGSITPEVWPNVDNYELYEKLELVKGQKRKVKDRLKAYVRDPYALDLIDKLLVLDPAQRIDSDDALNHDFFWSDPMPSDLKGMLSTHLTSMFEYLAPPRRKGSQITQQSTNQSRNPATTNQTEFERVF
Sequence of UniProt P52564 (whole entry, looked up): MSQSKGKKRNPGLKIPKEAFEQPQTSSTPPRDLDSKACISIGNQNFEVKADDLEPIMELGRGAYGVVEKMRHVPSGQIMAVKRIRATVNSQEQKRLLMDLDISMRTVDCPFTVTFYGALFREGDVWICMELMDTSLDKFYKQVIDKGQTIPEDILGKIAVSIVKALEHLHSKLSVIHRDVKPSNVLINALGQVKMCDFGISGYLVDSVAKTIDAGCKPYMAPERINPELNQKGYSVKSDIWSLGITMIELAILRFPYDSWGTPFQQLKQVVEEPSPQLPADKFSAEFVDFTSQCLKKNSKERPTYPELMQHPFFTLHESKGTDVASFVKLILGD

Set 1 — technique: phase 2a trial
Structure (SMILES): CC(C)n1cnc(-c2ccc(F)cc2)c1-c1ncc(C(=O)Nc2ccc(N3CCN(C)CC3)cc2)[nH]1
The “patients with TEAE” was 0% (idiopathic pulmonary fibrosis patients; oral, 60 mg once daily, GLDH increased, grade 5).
For idiopathic pulmonary fibrosis patients; oral, 60 mg once daily, LDL increased, grade 1: “patients with TEAE” read 1%.
For patients with idiopathic pulmonary fibrosis; 60 mg once daily, nervous system disorders SOC, grade 5: “patients with TEAE” read 0%.
patients with idiopathic pulmonary fibrosis; 30 mg once daily, atopic dermatitis, grade 5 — “patients with TEAE”: 0%.
It gave 0% for “patients with TEAE” (idiopathic pulmonary fibrosis patients; oral, dose not given, CK-MB increased, grade 3, all arms).
patients with idiopathic pulmonary fibrosis; 60 mg once daily, nervous system disorders SOC, grade 2 — “patients with TEAE”: 0%.
For idiopathic pulmonary fibrosis patients; oral, dose not given, LDL increased, grade 3, all arms: “patients with TEAE” read 0%.
The “patients with TEAE” was 0% (patients with idiopathic pulmonary fibrosis; dose not given, renal and urinary disorders SOC, grade 5, all arms).
It gave 0% for “patients with TEAE” (patients with idiopathic pulmonary fibrosis; 30 mg once daily, skin papilloma, maximum intensity grade 3).
The “patients with TEAE” was 0% (idiopathic pulmonary fibrosis patients; oral, 30 mg once daily, CK-MB increased, grade 4).
For patients with idiopathic pulmonary fibrosis; 30 mg once daily, skin papilloma, maximum intensity grade 2: “patients with TEAE” read 0%.
It gave 0% for “patients with TEAE” (patients with idiopathic pulmonary fibrosis; 60 mg once daily, renal and urinary disorders SOC, grade 4).
It gave 0% for “patients with TEAE” (idiopathic pulmonary fibrosis patients; oral, 30 mg once daily, urine red cells, grade 2).
It gave 0% for “patients with TEAE” (idiopathic pulmonary fibrosis patients; oral, 30 mg once daily, musculoskeletal disorders, grade 4).
The “patients with TEAE” was 0% (patients with idiopathic pulmonary fibrosis; 30 mg once daily, renal and urinary disorders SOC, grade 5).
The “patients with TEAE” was 0% (patients with idiopathic pulmonary fibrosis; 30 mg once daily, free thyroxine decreased, grade 1).
For patients with idiopathic pulmonary fibrosis; 30 mg once daily, free thyroxine decreased, grade 3: “patients with TEAE” read 0%.
It gave 0% for “patients with TEAE” (patients with idiopathic pulmonary fibrosis; dose not given, renal and urinary disorders SOC, grade 3, all arms).

Set 2 — read-out: cell-free assay; technique: competition with immobilised ligand; tested at: 1 µM
Structure (SMILES): C[C@@H](c1cccc(C#N)c1)n1cc(Cl)cc(C(N)=O)c1=N
For Tyrosine-protein kinase ABL1, non-phosphorylated (ABL1, Homo sapiens, UniProt P00519, H396P): remaining binding read 54%.
The remaining binding was 80% (LATS2 (Homo sapiens, UniProt Q9NRM7)).
The remaining binding was 96% (MINK1 (Homo sapiens, UniProt Q8N4C8)).
Non-receptor tyrosine-protein kinase TYK2, JH2 (TYK2, Homo sapiens, UniProt P29597) — remaining binding: 94%.
The remaining binding was 96% (FLT3 (Homo sapiens, UniProt P36888, D835V/ITD)).
The remaining binding was 100% (PIK3CA (Homo sapiens, UniProt P42336, H1047Y)).
It gave 100% for remaining binding (PRKG2 (Homo sapiens, UniProt Q13237)).
It gave 100% for remaining binding (PTK2 (Homo sapiens, UniProt Q05397)).
The remaining binding was 98% (MAP3K15 (Homo sapiens, UniProt Q6ZN16)).
GRK4 (Homo sapiens, UniProt P32298) — remaining binding: 99%.
The remaining binding was 85% (PIP4K2C (Homo sapiens, UniProt Q8TBX8)).
The remaining binding was 100% (PHKG1 (Homo sapiens, UniProt Q16816)).
The remaining binding was 100% (Tyrosine-protein kinase JAK3, JH1 (JAK3, Homo sapiens, UniProt P52333)).
The remaining binding was 82% (ALK (Homo sapiens, UniProt Q9UM73, L1196M)).
MAP3K12 (Homo sapiens, UniProt Q12852) — remaining binding: 100%.
For MERTK (Homo sapiens, UniProt Q12866): remaining binding read 82%.

Set 3 — SMILES: Nc1ncnc2c1cnn2-c1ccccc1; read-out: enzyme activity; mode: inhibitor; tested at: 0.5 µM; baseline: control
For MKNK2 (Homo sapiens, UniProt Q9HBH9): remaining activity read 72.7%.
It gave 98.7% for remaining activity (NEK4 (Homo sapiens, UniProt P51957)).
For LYN (Homo sapiens, UniProt P07948): remaining activity read 102%.
MAP4K2 (Homo sapiens, UniProt Q12851) — remaining activity: 94.9%.
MAPK12 (Homo sapiens, UniProt P53778) — remaining activity: 90.6%.
For BTK (Homo sapiens, UniProt Q06187): remaining activity read 98.7%.
It gave 99.2% for remaining activity (PLK2 (Homo sapiens, UniProt Q9NYY3)).
The remaining activity was 98.6% (STK38 (Homo sapiens, UniProt Q15208)).
The remaining activity was 97.3% (PRKCI (Homo sapiens, UniProt P41743)).
Cyclin-dependent kinase 9, with cyclin T1 (CDK9, Homo sapiens, UniProt P50750) — remaining activity: 109%.
For PRKCD (Homo sapiens, UniProt Q05655): remaining activity read 93%.
The remaining activity was 99.3% (LRRK2 (Homo sapiens, UniProt Q5S007)).
CSNK2A1 (Homo sapiens, UniProt P68400) — remaining activity: 94.4%.
For PRKG1 (Homo sapiens, UniProt Q13976): remaining activity read 91.3%.
It gave 89.5% for remaining activity (KIT (Homo sapiens, UniProt P10721)).
IRAK4 (Homo sapiens, UniProt Q9NWZ3) — remaining activity: 89.4%.
It gave 95.6% for remaining activity (EPHA5 (Homo sapiens, UniProt P54756)).
The remaining activity was 88.6% (MAP3K10 (Homo sapiens, UniProt Q02779)).
The remaining activity was 102% (AKT3 (Homo sapiens, UniProt Q9Y243)).
For CSNK1A1 (Homo sapiens, UniProt P48729): remaining activity read 79.8%.
For MAP2K6 (Homo sapiens, UniProt P52564): remaining activity read 90.8%.
CHEK1 (Homo sapiens, UniProt O14757) — remaining activity: 92.5%.

Set 4 — organism: Plasmodium berghei; cells: Huh-7; strain: liver stage; tested at: 10 µM; time: 24 h; baseline: control
For `C[N+]1(C)[C@@H]2C[C@@H](OC(=O)[C@H](CO)c3ccccc3)C[C@H]1[C@@H]1O[C@@H]12`, the parasite load was 104%.
`CC(C)(C(=O)O)c1ccc(C(O)CCCN2CCC(C(O)(c3ccccc3)c3ccccc3)CC2)cc1` (stereo not drawn) has a parasite load of 112%.
`CNCCC(Oc1ccc(C(F)(F)F)cc1)c1ccccc1` (stereo not drawn) has a parasite load of 64.6%.
With `CCOC(=O)N1CCC(=C2c3ccc(Cl)cc3CCc3cccnc32)CC1` the parasite load was 83.8%.
With `CC(=O)Nc1ccc(S(=O)(=O)c2ccc(NC(C)=O)cc2)cc1` the parasite load was 110%.
The parasite load of `N=C(N)NCCN1CCCCCCC1` is reported as 81.9%.
`CCCNCC(O)COc1ccccc1C(=O)CCc1ccccc1` (stereo not drawn) gave a parasite load of 80.1%.
The parasite load of `COc1ccc(CCN(C)CCCC(C#N)(c2ccc(OC)c(OC)c2)C(C)C)cc1OC` (stereo not drawn) is reported as 48.9%.
`C[N+](C)(C)CCCCCCCCCC[N+](C)(C)C` gave a parasite load of 85.8%.
The parasite load of `CN1[C@@H]2CC[C@H]1C[C@@H](OC(c1ccccc1)c1ccccc1)C2` is reported as 74.7%.

Some of these lines once more (set 2):
It gave 100% for remaining binding (PRKG2 (Homo sapiens, UniProt Q13237)).
It gave 100% for remaining binding (PTK2 (Homo sapiens, UniProt Q05397)).
The remaining binding was 98% (MAP3K15 (Homo sapiens, UniProt Q6ZN16)).
GRK4 (Homo sapiens, UniProt P32298) — remaining binding: 99%.
The remaining binding was 85% (PIP4K2C (Homo sapiens, UniProt Q8TBX8)).
The remaining binding was 100% (PHKG1 (Homo sapiens, UniProt Q16816)).
The remaining binding was 100% (Tyrosine-protein kinase JAK3, JH1 (JAK3, Homo sapiens, UniProt P52333)).
The remaining binding was 82% (ALK (Homo sapiens, UniProt Q9UM73, L1196M)).
MAP3K12 (Homo sapiens, UniProt Q12852) — remaining binding: 100%.
